Measurements collected from several papers.
Each numbered part is a random draw from the data of one study; scales do not carry over between parts. Positions count from the first letter of the parent shown.

Series 1
Target: Fragile X messenger ribonucleoprotein 1, C-terminal low-complexity region (Fmr1, Mus musculus, UniProt P35922)
Method: RNA Bind-n-Seq
Molecule type: RNA
Medium: in vitro
Tested at: 200 nM
Setting: whole 134-nt RNA, ends assumed
Added: 150 mM LiCl
Relative to: input library
Reading: higher = stronger binding
All molecules: 7-deaza-guanosine replaces G
Constant ends, left off below: GGGAGUUCUACAGUCCGACGAUC … UGGAAUUCUCGGGUGUCAAGG
Sequence	log2 enrichment
UAACUUUAGAGGAGGAUCUGAUGGAUAUGGCAGUGGACGUGGAUUUGGGGAUGGCUAUAAUGGGUAUGGAGGAGGACCUGGAGGAGGCAA	0.763
UCCUGUGCUACACAUCGUAUGUACCGAAUCGGGGUUUGGGGUUUGGGGUUUUUUUGGGGAAAGUAUUAUGUUACGCCGUUCGGAUCUGCA	-0.719
CAAGUCCUGUGCUACACAUCGUAUGUACCGAAUCGGAAAAAGGUUUGGAAAAAGGAAAGUAUUAUGUUACGCCGUUCGGAUCUGCACUUC	-1.75
CAACGUUGAAAUGGAUUGGGUGUUGAAGCAUACUGGUCCAAAUAGUCCUGACACGGCCAAUGAUGGCUUUGUACGGCUUAGAGGACUUCC	-3.14
AAGUCCUGUGCUACACAUCGUAUGUACCGAAUCGGGAAAAGGAAAAGGGGAAAAGGGAAAGUAUUAUGUUACGCCGUUCGGAUCUGCACU	0.168
AAGUCCUGUGCUACACAUCGUAUGUACCGAAUCGGGGAAAAGGAAAAGGGAAAAGGGAAAGUAUUAUGUUACGCCGUUCGGAUCUGCACU	0.015
GCAGGAAGUAAAAACAAAUGGAAAUGCUUCGGAGAGUGGCAGGGGUGGGGGUUGCUAAGGAAAGGGUGGGAUGGGAGUGGGUAAAGAGUU	1.45
UUCCCUGUACCGGCAGAGUUCACAAACACAUUUGAAGAGGCUUUUUCUCAGGAUUCUUAACCUUCCCAAAGGAAGUCCCAUGGAUGGGUU	-1.57

Series 2
Target: CCND2, cyclin fold, Cln2 fusion (human)
Method: yeast growth competition, sequencing
Medium: yeast
Setting: weak parent motif
Relative to: not given
Reading: higher = stronger binding
Parent: DTL docking peptide (human); PSSMRKICTYFHR
Change	normalised enrichment score
PASMRKICTYFHR [S2A]	-0.63
PSSARKICTYFHR [M4A]	-0.218
PSSMRKICTYFHA [R13A]	-0.465
PSSMRKICAYFHR [T9A]	-0.459
PSAMRKICTYFHR [S3A]	-0.959
ASSMRKICTYFHR [P1A]	-0.387
PSSMRKIATYFHR [C8A]	-0.867

Series 3
Target: BATF, bZIP domain (human)
Method: DHFR protein complementation
Medium: yeast
Setting: single substitutions, most at no-binding floor
Relative to: wild-type JUN-FOS pair
Reading: higher = stronger binding
Parent: JUN, bZIP domain (human); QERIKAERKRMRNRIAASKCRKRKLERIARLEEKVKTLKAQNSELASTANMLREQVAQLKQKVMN; partner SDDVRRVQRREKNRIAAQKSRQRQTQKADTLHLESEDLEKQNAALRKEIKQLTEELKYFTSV
Change	binding fitness [natural log]
L38H	-0.961
Q41K	-0.135
K39N	-0.283
K39V	-0.316
E44N	-0.154
T48G	-0.637
S43E	0.0642
R30Q	0.105
K36T	-0.124
I28Y	-0.022
Q41Y	-1.46
V35Y	-0.132
I28E	0.0791
L31P	-0.446
L38T	-0.818
E54Q	-0.193
E54I	-0.0711

Series 4
Target: ABI1, truncated, D143A, DHFR fusion (Arabidopsis thaliana)
Method: DHFR PCA, deep sequencing
Medium: yeast
Setting: methotrexate growth selection, single substitutions
Added: (+)-ABA 0.39 µM
Relative to: wild-type fitted maximum
Reading: higher = stronger binding
Parent: PYL1, truncated, DHFR fusion (Arabidopsis thaliana); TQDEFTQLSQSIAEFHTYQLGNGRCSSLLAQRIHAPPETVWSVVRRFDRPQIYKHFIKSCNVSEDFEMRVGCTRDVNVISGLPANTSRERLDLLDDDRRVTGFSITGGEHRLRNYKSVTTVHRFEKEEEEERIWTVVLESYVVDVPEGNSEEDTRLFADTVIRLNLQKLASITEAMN; partner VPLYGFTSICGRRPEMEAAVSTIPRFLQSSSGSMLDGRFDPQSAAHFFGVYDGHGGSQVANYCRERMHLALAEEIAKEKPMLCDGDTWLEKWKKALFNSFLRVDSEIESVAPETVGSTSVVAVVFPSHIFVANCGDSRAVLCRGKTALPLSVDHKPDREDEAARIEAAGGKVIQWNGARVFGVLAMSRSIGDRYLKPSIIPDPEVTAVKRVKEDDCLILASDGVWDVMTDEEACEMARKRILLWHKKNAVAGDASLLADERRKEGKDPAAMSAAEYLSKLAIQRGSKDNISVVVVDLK
Change	relative binding score [%]
D97R	32.6
S104R	-7.52
E174D	2.42
C72E	34.1
S63A	63.3
M68I	49.3
V40F	-18.8
A13I	17.8
P36M	3.06
D48C	2.18
F15P	-5.41
I33G	0.58
R123K	60.8
L156K	-16.2
F47M	-6.06
R98T	0.0788
R88N	22.4
V44W	-7.27
E127C	46
E4Y	28.7
Q10C	24.9
R46P	-4.88
D3Y	38.8
D95G	-6.41
E38S	13.9

Series 5
Target: Histone acetyltransferase KAT6A, both winged helices, GST fusion (KAT6A, Homo sapiens, UniProt Q92794, residues 1-181)
Method: protein binding microarray
Molecule type: double-stranded DNA, one strand shown
Medium: in vitro
Tested at: not given
Setting: 8-mer, flanks averaged, mean of 2 arrays, mostly near background
Relative to: not given
Reading: higher = stronger binding
Target sequence (chain): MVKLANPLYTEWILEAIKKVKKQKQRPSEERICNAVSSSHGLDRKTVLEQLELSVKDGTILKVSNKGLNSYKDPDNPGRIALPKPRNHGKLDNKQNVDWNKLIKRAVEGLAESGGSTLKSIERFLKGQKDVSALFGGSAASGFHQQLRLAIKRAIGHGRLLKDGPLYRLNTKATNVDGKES
Sequence	E-score
AAGCAGCT	-0.0764
CAGCGGAC	0.18
ACCACAGT	-0.116
TCGAGACA	-0.135
CCAGAACA	-0.208
AGCACTGC	0.00483
CTTACGAA	-0.174
ATTCCGTA	0.202
ATCAAGAT	-0.0743
ACCTCAGC	-0.0721
AGCCGTAC	0.275
AAAAAGTA	-0.0427
AGTTGGGG	-0.244
GTAATGAA	0.097
AAAACTAG	-0.123
ACCATGAC	0.0324
CAGGCAGC	-0.106
CGTAGCCC	0.0629
ATATTGGC	-0.125
GTCGGATA	0.172
AGTGCCCG	0.122
ACCCCAGG	-0.0867
ACGATCGG	0.178
CGTAGTAG	0.0381
AAAGAGAC	-0.184

Some of these lines once more (series 3):
Change	binding fitness [natural log]
R30Q	0.105
K36T	-0.124
I28Y	-0.022
Q41Y	-1.46
V35Y	-0.132
I28E	0.0791
L31P	-0.446
